Published values from different studies.
Compare with care: the assays were run in different laboratories. ± gives the spread as reported. In brackets after ≈: the same amount, converted by molar mass.

By UniProt entry, the sequences of proteins in these tests, tags left out.
UniProt P28566, whole entry: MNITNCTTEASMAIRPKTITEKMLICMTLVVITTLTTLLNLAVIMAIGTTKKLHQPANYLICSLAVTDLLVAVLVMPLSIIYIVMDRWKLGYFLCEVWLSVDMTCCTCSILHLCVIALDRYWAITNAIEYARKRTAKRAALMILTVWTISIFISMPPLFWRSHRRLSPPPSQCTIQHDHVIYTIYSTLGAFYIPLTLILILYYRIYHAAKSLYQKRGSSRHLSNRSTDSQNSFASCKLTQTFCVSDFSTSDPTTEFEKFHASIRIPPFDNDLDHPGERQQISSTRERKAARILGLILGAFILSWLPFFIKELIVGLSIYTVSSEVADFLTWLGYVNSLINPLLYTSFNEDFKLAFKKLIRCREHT

COc1cc(OC)c2ccccc2c1C=C1C(=O)NC(=S)NC1=O  IC50 (Jurkat NF-kB GFP reporter; NF-kB reporter gene, inhibitor): 3 µM
Cc1ccc(S(=O)(=O)N(C)CC(=O)N(Cc2ccc(C3CCCCC3)cc2)c2ccc(C(=O)O)c(O)c2)cc1  IC50 (Stat3-null MEFs; cell viability, CyQuant): > 100 µM
CCCCCCC1c2ccc(O)cc2Oc2cc(O)ccc21  MIC (Escherichia coli; NR698; no additive): 4.7 µg/mL (≈ 15.8 µM)
O=C(N/N=C/c1cc([N+](=O)[O-])ccc1O)c1ccc(O)cc1O  IC50 (SK-OV-3 GFP knock-out; cell viability, MTT): 37.3 µM
C#Cc1ccc2c(c1)C(c1ccccc1F)=N[C@H](C)c1c(-c3nc(C(C)C)no3)ncn1-2  NO production (mouse microglia; 50 µM, 14 h, with: IFNγ/LPS): decreased
CCCCCCCCCCC/C=C/c1ccc2cc(CP(=O)(O)O)ccc2c1  cell invasion (MM1 rat hepatoma cells; concentration not given, 24 h, invasion of HUVEC monolayer, with: 1.5 µM LPC): inhibited
CC#C/C(=N\OC[C@H]1COCCN1)c1ccc2ncnc(Nc3ccc(OCc4cccc(F)c4)c(Cl)c3)c2c1  IC50 (NCI-N87; cell growth; with: 2% serum albumin): 0.0229 ± 0.0008 µM
COc1cc(CC(=O)NCC(NC(=O)C(CCCNC(=O)c2cccc(I)c2)NC(=O)C(Cc2ccc(C(F)(F)P(=O)(O)O)cc2)NC(=O)c2ccc(C)c(Br)c2)C(N)=O)ccc1O (stereo not shown)  Erk1/2 activation (primary mouse hepatocytes; Western blot; concentration not given, with: insulin 5 nM, 5 min): increased
CCN1CCN(Cc2ccc(NC(=O)c3ccc(C)c(/C=C/c4cnc5[nH]ccc5c4OC)c3)cc2C(F)(F)F)CC1  log2 fold change (MSN-ALK fusion; kinase-CDC37 interaction, cell-based kinome screen; 5 µM; reference: vehicle): -0.131
CCCN1CCN(c2ccc3c(c2)C2CC3CCN2C(=O)OCc2ccccc2)CC1 (stereo not shown)  Ki (5-hydroxytryptamine receptor 1E (HTR1E, Homo sapiens, UniProt P28566); binding, radioligand binding): 7.74 µM
CSc1nc(Cl)cc(Sc2nnc(-c3cc(C(F)(F)F)cc(C(F)(F)F)c3)[nH]2)n1  MIC (Escherichia coli; MC4100; with: NAB7061 4 µg/mL): 0.9 µg/mL (≈ 1.91 µM)
C=CC(=O)N1C[C@H](c2ccc(Br)cc2)[C@@H]1C(=O)Nc1cccc2cccnc12  loss of probe reactivity (22Rv1; activity-based protein profiling, refers to: cysteine 321; 5 µM, 3 h; reference: DMSO): ~75%
CC[C@H](C)[C@H]1O[C@]2(CC[C@@H]1C)C[C@@H]1C[C@@H](C/C=C(\C)[C@@H](O[C@H]3C[C@H](OC)[C@@H](O[C@H]4C[C@H](OC)[C@@H](O)[C@H](C)O4)[C@H](C)O3)[C@@H](C)/C=C/C=C3\CO[C@@H]4[C@H](O)C(C)=C[C@@H](C(=O)O1)[C@]34O)O2  IC50 (HEK293 FXR-bla; reporter gene): 38.2 ± 3.9 µM

Repeated from above:
COc1cc(CC(=O)NCC(NC(=O)C(CCCNC(=O)c2cccc(I)c2)NC(=O)C(Cc2ccc(C(F)(F)P(=O)(O)O)cc2)NC(=O)c2ccc(C)c(Br)c2)C(N)=O)ccc1O (stereo not shown)  Erk1/2 activation (primary mouse hepatocytes; Western blot; concentration not given, with: insulin 5 nM, 5 min): increased
